Published values from different studies.
Compare with care: the assays were run in different laboratories. Several values in a cell are separate wells, animals, samples, runs or records. Numbers after ± are the reported error.
AKR1B1: Aldo-keto reductase family 1 member B1 (AKR1B1, Homo sapiens, UniProt P15121)
Kir3.1/Kir3.4: Kir3.1/Kir3.4 (Homo sapiens, UniProt P48544+P48549)
Sequence of UniProt P48549 (whole entry, looked up): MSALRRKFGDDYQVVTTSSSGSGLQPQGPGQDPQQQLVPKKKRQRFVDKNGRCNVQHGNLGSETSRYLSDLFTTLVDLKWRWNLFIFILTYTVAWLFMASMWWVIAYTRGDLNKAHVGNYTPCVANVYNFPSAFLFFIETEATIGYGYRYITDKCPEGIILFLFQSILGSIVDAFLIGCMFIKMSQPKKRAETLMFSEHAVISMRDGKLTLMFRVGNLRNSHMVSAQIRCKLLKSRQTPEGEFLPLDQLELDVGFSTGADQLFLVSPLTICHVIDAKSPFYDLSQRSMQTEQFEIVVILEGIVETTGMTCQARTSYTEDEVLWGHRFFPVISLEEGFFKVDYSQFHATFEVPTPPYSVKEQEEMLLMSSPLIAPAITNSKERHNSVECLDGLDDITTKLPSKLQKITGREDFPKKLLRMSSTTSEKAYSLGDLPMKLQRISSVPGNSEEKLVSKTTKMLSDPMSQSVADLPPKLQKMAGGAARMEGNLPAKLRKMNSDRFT
Sequence of UniProt P48544 (whole entry, looked up): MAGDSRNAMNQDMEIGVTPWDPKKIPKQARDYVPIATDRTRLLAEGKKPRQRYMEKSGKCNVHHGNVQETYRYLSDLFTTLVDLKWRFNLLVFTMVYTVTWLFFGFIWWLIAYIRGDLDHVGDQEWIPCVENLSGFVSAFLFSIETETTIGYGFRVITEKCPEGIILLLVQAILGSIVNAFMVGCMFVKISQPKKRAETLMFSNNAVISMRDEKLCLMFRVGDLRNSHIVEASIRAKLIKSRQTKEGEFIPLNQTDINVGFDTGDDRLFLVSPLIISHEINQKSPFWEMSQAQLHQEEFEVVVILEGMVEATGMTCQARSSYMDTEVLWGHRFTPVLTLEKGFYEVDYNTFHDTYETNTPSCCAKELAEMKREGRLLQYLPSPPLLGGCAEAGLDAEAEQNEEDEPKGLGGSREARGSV
pyrD: Dihydroorotate dehydrogenase (quinone) (pyrD, Acinetobacter baumannii, UniProt B7GZW7)
Sequence of UniProt B7GZW7 (whole entry, looked up): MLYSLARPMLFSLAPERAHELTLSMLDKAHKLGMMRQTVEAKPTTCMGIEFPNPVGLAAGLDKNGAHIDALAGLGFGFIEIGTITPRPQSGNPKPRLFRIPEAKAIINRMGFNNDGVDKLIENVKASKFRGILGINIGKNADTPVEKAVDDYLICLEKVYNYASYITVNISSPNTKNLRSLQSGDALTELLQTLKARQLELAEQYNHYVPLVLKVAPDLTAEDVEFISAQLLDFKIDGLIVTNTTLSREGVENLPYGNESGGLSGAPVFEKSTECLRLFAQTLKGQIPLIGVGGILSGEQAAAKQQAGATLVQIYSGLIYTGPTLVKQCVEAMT
T1: riboswitch RNA yjdF aptamer domain (Bacillus subtilis); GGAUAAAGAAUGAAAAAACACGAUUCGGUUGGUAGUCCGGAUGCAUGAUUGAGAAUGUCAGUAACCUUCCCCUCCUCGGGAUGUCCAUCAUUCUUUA
Sequence of UniProt P05164 (whole entry, looked up): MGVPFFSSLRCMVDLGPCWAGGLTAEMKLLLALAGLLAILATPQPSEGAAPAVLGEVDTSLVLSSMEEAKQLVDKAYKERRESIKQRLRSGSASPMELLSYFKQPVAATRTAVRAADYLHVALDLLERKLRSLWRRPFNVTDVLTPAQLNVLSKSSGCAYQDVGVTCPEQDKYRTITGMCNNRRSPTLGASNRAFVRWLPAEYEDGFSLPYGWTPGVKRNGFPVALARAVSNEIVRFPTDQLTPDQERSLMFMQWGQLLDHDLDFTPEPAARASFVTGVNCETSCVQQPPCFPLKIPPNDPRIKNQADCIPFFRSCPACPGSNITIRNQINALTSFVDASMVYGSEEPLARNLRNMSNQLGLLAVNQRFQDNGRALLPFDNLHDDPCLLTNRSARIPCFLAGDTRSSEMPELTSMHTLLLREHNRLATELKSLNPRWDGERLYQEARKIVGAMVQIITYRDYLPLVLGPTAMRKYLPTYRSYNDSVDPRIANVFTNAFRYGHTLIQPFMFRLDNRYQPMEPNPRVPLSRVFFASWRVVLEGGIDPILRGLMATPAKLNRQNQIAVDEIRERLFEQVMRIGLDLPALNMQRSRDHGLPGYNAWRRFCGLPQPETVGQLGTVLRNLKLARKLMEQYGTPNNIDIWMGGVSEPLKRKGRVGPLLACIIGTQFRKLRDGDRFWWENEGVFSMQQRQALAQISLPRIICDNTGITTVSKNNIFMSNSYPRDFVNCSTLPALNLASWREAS
Sequence of UniProt P51575 (whole entry, unmodified, looked up): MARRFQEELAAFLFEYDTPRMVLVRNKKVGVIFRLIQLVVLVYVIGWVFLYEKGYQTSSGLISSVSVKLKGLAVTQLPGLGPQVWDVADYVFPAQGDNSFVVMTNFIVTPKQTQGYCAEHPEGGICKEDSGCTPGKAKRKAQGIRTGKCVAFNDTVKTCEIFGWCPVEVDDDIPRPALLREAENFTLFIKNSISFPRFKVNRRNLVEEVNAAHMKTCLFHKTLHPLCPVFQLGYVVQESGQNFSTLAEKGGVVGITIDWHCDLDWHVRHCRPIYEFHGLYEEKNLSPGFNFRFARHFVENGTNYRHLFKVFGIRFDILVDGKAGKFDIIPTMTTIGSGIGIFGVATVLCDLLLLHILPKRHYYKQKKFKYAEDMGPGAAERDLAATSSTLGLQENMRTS
Sequence of UniProt Q80VM9 (whole entry, looked up): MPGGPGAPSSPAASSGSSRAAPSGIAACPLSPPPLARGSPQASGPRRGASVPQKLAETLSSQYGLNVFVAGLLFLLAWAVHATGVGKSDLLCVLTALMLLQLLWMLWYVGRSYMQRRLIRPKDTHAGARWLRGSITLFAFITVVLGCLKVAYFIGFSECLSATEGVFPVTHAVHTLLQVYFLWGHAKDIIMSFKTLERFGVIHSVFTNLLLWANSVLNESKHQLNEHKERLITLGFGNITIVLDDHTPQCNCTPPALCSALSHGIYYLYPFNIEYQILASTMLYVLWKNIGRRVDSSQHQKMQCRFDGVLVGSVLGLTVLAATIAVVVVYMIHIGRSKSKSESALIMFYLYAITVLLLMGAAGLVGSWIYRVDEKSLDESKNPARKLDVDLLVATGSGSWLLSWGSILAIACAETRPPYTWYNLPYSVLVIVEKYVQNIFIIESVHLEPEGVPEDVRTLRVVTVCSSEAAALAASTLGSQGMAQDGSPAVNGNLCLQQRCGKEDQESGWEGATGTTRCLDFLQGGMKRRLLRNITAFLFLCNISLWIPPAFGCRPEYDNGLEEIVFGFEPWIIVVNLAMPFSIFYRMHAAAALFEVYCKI
Sequence of UniProt P11388 (whole entry, looked up): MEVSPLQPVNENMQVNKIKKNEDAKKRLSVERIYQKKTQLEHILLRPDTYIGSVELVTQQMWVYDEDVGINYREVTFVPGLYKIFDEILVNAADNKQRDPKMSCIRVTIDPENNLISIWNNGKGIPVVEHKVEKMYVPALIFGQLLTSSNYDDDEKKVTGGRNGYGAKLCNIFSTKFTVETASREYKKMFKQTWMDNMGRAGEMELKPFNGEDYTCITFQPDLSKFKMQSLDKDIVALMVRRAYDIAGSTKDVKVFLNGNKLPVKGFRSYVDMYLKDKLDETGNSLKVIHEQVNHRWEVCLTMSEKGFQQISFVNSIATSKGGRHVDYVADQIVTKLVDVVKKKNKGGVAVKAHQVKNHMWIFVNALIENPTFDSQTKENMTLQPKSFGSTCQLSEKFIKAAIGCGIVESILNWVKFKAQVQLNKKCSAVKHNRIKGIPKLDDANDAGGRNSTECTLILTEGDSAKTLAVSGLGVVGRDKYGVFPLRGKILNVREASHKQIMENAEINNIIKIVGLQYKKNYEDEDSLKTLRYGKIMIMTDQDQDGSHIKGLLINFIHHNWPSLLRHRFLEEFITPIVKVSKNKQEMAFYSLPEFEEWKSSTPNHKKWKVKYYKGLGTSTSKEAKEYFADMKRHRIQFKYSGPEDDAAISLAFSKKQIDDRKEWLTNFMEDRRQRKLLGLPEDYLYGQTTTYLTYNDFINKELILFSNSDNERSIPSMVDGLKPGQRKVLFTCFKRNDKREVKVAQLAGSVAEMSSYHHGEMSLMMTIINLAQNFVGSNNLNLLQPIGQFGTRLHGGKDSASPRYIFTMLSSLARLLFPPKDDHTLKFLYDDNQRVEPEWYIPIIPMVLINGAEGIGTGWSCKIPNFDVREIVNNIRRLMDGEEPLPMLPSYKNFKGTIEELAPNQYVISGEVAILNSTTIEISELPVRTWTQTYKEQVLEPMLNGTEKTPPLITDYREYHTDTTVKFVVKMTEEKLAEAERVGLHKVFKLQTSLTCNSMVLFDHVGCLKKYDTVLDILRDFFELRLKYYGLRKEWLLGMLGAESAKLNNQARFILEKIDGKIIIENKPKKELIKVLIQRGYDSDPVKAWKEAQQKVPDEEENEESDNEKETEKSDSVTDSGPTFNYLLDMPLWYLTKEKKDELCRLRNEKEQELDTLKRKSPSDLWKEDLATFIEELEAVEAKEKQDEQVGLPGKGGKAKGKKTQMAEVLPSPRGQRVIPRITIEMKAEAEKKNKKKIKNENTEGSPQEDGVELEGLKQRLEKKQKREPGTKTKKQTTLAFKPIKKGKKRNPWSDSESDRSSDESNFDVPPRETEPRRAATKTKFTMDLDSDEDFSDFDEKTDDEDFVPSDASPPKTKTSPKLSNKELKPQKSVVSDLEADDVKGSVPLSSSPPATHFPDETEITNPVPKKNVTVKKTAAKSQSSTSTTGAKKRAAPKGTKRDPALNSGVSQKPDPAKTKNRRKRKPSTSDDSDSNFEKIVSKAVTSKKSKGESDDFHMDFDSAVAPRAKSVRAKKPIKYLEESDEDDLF
Sequence of UniProt Q13258 (whole entry, unmodified, looked up): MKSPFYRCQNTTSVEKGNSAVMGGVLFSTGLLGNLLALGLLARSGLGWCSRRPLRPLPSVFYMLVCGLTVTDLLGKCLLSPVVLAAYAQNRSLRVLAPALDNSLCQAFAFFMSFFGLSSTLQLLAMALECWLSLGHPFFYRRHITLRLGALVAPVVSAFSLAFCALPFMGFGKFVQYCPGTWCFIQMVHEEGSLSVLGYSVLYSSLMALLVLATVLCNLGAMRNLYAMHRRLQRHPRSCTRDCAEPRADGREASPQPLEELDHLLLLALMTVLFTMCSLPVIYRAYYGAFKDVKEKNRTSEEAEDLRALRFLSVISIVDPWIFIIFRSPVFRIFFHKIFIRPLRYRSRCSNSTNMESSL

Compound	tested on	test	test system	conditions	scale	endpoint	result
Cn1c[n+]([C@@H]2O[C@H](COP(=O)(O)OP(=O)([O-])OP(=O)(O)OC[C@H]3O[C@@H](n4cnc5c(=O)[nH]c(N)nc54)[C@H](O)[C@@H]3O)[C@@H](O)[C@H]2O)c2nc(N)[nH]c(=O)c21	m7GpppX diphosphatase (DCPS, Homo sapiens, UniProt Q96C86)	substrate, HPLC	–	0.04 mM, 1 h, 37 °C	–	hydrolysis	98.2 ± 1.8%
COc1cc2ccc(=O)oc2cc1O	uncharacterized protein (Solanum tuberosum, UniProt M0ZZL3)	enzyme activity	–	–	–	Hill coefficient	0.5 ± 0.1
O=C(CN1C(=O)S/C(=C\c2ccc(Cl)cc2)C1=O)c1ccc([N+](=O)[O-])cc1	AKR1B1	enzyme activity, inhibitor	–	–	–	log IC50	2.67 log nM
O=C(COc1ccc(C(F)(F)F)cc1C(F)(F)F)Nc1cc(C2CCC2)nn1C1CCC(F)(F)CC1	Kir3.1/Kir3.4	thallium flux, activator	HEK293	–	relative to: standard compound	Emax	< 10%
CC(=O)NCC(=O)NCC(=O)N[C@H](C(=O)N[C@@H](Cc1ccc(O)cc1)C(=O)N[C@@H](CO)C(=O)N[C@H]1CSSC[C@@H](C(=O)N[C@@H](CCCNC(=N)N)C(=O)N2CCC[C@H]2C(=O)N[C@@H](CCC(N)=O)C(=O)N[C@@H](CCCNC(=N)N)C(=O)NCC(=O)NCCC(=O)N[C@@H](CCCCNC(=O)CN(CC(=O)NCCCC[C@H](NC(=O)CCNC(=O)CNC(=O)[C@H](CCCNC(=N)N)NC(=O)[C@H](CCC(N)=O)NC(=O)[C@@H]2CCCN2C(=O)[C@H](CCCNC(=N)N)NC(=O)[C@@H]2CSSC[C@H](NC(=O)[C@H](CO)NC(=O)[C@H](Cc3ccc(O)cc3)NC(=O)[C@@H](NC(=O)CNC(=O)CNC(C)=O)[C@@H](C)O)C(=O)N[C@@H](Cc3c[nH]cn3)C(=O)N[C@@H](Cc3ccccc3)C(=O)NCC(=O)N[C@@H](C)C(=O)N[C@@H](CC(C)C)C(=O)N[C@@H]([C@@H](C)O)C(=O)N[C@@H](Cc3c[nH]c4ccccc34)C(=O)N[C@@H](C(C)C)C(=O)N2)C(N)=O)C(=O)CCN)C(N)=O)NC(=O)[C@H](C(C)C)NC(=O)[C@H](Cc2c[nH]c3ccccc23)NC(=O)[C@H]([C@@H](C)O)NC(=O)[C@H](CC(C)C)NC(=O)[C@H](C)NC(=O)CNC(=O)[C@H](Cc2ccccc2)NC(=O)[C@H](Cc2c[nH]cn2)NC1=O)[C@@H](C)O	Erythropoietin receptor, extracellular domain (Homo sapiens, UniProt P19235)	binding, SPR	–	–	–	residence time	31 min
Cc1cc(Nc2ccc(SC(F)(F)F)cc2)n2ncnc2n1	pyrD	enzyme activity, inhibitor, colorimetric HTS, refers to: DCIP reduction	–	3 µM	direction not given	robust Z-score	23.7
Nc1ncnc2c1ncn2[C@@H]1O[C@H](COP(=O)(O)CP(=O)(O)OP(=O)(O)O)[C@@H](O)[C@H]1O	P2X purinoceptor 1 (P2RX1, Homo sapiens, UniProt P51575, R139P)	calcium influx	–	31.6 nM	relative to: ionomycin response	calcium influx	1.21% and 1.83% and 1.01%
O=C(Nc1ccccc1)c1ccc2c(c1)C(=O)NC2=O	Amine oxidase [flavin-containing] B (MAOB, Homo sapiens, UniProt P27338)	–	–	–	relative to: IC50 MAO-A over IC50 MAO-B	selectivity ratio	> 12
O=c1ncccn1[C@@H]1O[C@H](CO)[C@@H](O)[C@H]1O	DNA (cytosine-5)-methyltransferase 1 (DNMT1, Homo sapiens, UniProt P26358)	degrader, Western blot	MEC1	200 µM, 48 h	–	protein level reduction	85 to 91%
Nc1ccc2cc3ccc(N)cc3nc2c1	T1, riboswitch RNA yjdF aptamer domain (Bacillus subtilis)	fluorescence titration	–	–	–	Kd	1.4 nM
O=C(CN1C(=O)S/C(=C\c2ccc(Br)cc2)C1=O)c1ccc([N+](=O)[O-])cc1	AKR1B1	enzyme activity, inhibitor	–	–	–	log IC50	2.69 log nM
CCN1CCC[C@H]1CNC(=O)c1c(O)c(Cl)cc(Cl)c1OC	ADGRF1 (Homo sapiens, UniProt Q5T601)	β-arrestin recruitment, TANGO luminescence, refers to: GPR110	–	concentration not given	relative to: basal luminescence	log2 fold change	0.285
Cc1ccc(C(=O)Nc2ccc3ccccc3c2)o1	Otop1 (Mus musculus, UniProt Q80VM9)	acid-evoked current, whole-cell patch-clamp	HEK293T	concentration not given, pH 5.5, co-applied with acid	–	activation time constant	421 ms and 400 ms and 259 ms and 590 ms and 366 ms
C=CC(=O)N1CCC(COCC(=O)N2CCN(c3nc(-c4cnc(N)nc4C(F)F)nc(N4CCOC[C@@H]4C)n3)CC2)CC1	Ephrin type-A receptor 8 (EPHA8, Homo sapiens, UniProt P29322)	KINOMEscan	–	1 µM	–	remaining binding	88%
CCCCC[C@H](O)/C=C/[C@H]1C(=O)C[C@H](O)[C@@H]1C/C=C\CCCC(=O)O	Prostaglandin D2 receptor (PTGDR, Homo sapiens, UniProt Q13258, D262A)	agonist	–	0.002441 µM	–	activation	24.1%
FC(F)(F)c1cccc(-c2n[nH]c(=S)o2)c1	P2X purinoceptor 4 (P2RX4, Homo sapiens, UniProt Q99571)	calcium mobilization	MCF7 stably transfected	100 µM, together with: ATP 100 µM	–	fluorescence increase	81.4 ± 0.77%
CCNC(=O)/C=C/c1cccc(Br)c1	Sodium-dependent neutral amino acid transporter B(0)AT1 (SLC6A19, Homo sapiens, UniProt Q695T7)	inhibitor, FLIPR membrane potential	CHO-BC cells	0.003 µM, unit not given	relative to: no inhibitor	remaining transport activity	0.975
CC1=NN(c2ccc(C)cc2)C(=O)C1=NNc1ccc(S(N)(=O)=O)cc1	bovine α-glucosidase	enzyme activity, inhibitor, glucose oxidase	–	200 µg/mL, together with: maltose	–	inhibition	38.5%
CC(C)OCCn1c(=S)[nH]c(=O)c2[nH]ccc21	Myeloperoxidase (MPO, Homo sapiens, UniProt P05164)	inhibitor, cholesteryl ester hydroperoxide	–	0.0412 µM	relative to: control	LDL lipid peroxidation	79.6% and 68.9% and 164% and 108%

Compound	tested on	test	test system	conditions	scale	endpoint	result
C=CC(=O)N1CCC[C@@H](n2nc(-c3ccc(Oc4ccccc4)cc3)c3c(N)ncnc32)C1	Non-receptor tyrosine-protein kinase TNK1 (TNK1, Homo sapiens, UniProt Q13470)	–	–	1 µM	–	remaining activity	148%
CC1=NNC(=S)NC(=O)C1/N=N/c1ccc(S(N)(=O)=O)cc1 (stereo not shown)	bovine α-glucosidase	enzyme activity, inhibitor, glucose oxidase	–	10 µg/mL, together with: maltose	–	inhibition	22.739 ± 0.000673%
O=c1nc(SCc2cc(F)cc(C(F)(F)F)c2)nc(SCc2ccc3nc(Cl)ccc3c2)[nH]1	DNA topoisomerase 2-alpha (TOP2A, Homo sapiens, UniProt P11388)	ATPase activity	–	15.6 µM, together with: ATP 0.05 mM	–	ATP hydrolysis rate	0.342 µM/min and 0.384 µM/min
COc1cc(O)c2c(c1)oc(=O)c1c3cc(O)c(O)cc3oc21	Alpha-glucosidase MAL12 (MAL12, Saccharomyces cerevisiae S288c, UniProt P53341)	–	–	together with: p-nitrophenyl glucoside	relative to: acarbose IC50 over compound IC50	potency ratio	~17 fold
Cn1cc(-c2ccc(-c3cncc(Cl)c3N3CCC4(CCNC4=O)CC3)cc2)cn1	COLO 205	microarray, refers to: WWTR1	–	concentration not given, 2 h, gene set TAZ	relative to: untreated cells	fold change in expression	-1.97
Cc1cc(NC(=O)CNC2CCCNC2)n(C2CCS(=O)(=O)C2)n1 (stereo not shown)	Kir3.1/Kir3.4	activator, thallium flux	HEK293	concentration not given	–	activity	inactive
Nc1ncnc2c1ncn2C(C=O)OC(C=O)CO (stereo not shown)	SND1	co-immunoprecipitation	HEK293T expressing GFP-RMET	25 µM, 3 days	–	SART3 binding	decreased
COc1cc(F)ccc1-c1ncnc(Nc2cccc(C[S@](C)(=N)=O)c2)n1	Serine/threonine-protein kinase BRSK1 (BRSK1, Homo sapiens, UniProt Q8TDC3)	kinase activity	–	10 µM, together with: 10 µM ATP	–	remaining activity	92%
O=C(NC1CCC1)c1ccc2nc(-c3cccc(NS(=O)(=O)NCCN4CCCCC4)c3)cn2c1	Activin receptor type-1-like (ACVRL1, Homo sapiens, UniProt P37023)	enzyme activity	–	10 µM	–	remaining activity	100%
C[C@H](CCC(C)(C)O)[C@H]1CC[C@H]2[C@@H]3CC=C4C[C@@](C)(O)CC[C@]4(C)[C@H]3CC[C@]12C	Glutamate NMDA receptor; GRIN1/GRIN2B (GRIN1/GRIN2B, Homo sapiens, UniProt Q05586+Q13224, Q556A)	positive allosteric modulator, two-electrode voltage clamp	Xenopus oocytes expressing GluN1-Q556A	10 µM, 0.02% cremophor, together with: 100 µM glutamate and glycine	relative to: without compound	current response	123 ± 6.7%
NCCCS(=O)(=O)O	Sodium- and chloride-dependent taurine transporter (SLC6A6, Homo sapiens, UniProt P31641, Y138A)	binding, microscale thermophoresis	–	125 µM, room temperature, together with: 50 nM labelled protein	higher = more binding	normalised MST signal	0.464
COc1cc(NC(=O)c2ccccn2)ccc1/N=N/c1ccccc1Cl	Metabotropic glutamate receptor 3 (GRM3, Homo sapiens, UniProt Q14832)	positive allosteric modulator, IP accumulation	HEK293	30 µM, in the dark, together with: low-dose orthosteric agonist	–	activation	-23.6%
CC1(C)CC2(C)OC(=O)NC2(C)c2ccccc21 (stereo not shown)	Protein transport protein Sec31A (SEC31A, Homo sapiens, UniProt O94979)	binding, affinity selection mass spectrometry	–	–	relative to: other proteins in batch	log fold enrichment	-0.048
NCCS(=O)(=O)O	Sodium- and chloride-dependent taurine transporter (SLC6A6, Homo sapiens, UniProt P31641, S402A)	binding, microscale thermophoresis	–	488 nM, room temperature, together with: 50 nM labelled protein	higher = more binding	normalised MST signal	-0.00928
CC(F)(F)c1nc2nc(CO)cc(Nc3ccc(S(F)(F)(F)(F)F)cc3)n2n1	pyrD	enzyme activity, inhibitor, colorimetric HTS, refers to: DCIP reduction	–	3 µM	direction not given	robust Z-score	14
CN1CCN(C(=O)c2ccc3cc(CCNc4ccnc5ccc(C#N)cc45)ccc3c2)CC1	Cyclin-dependent kinase 8, with cyclin C (CDK8, Homo sapiens, UniProt P49336)	TR-FRET kinetics	–	–	relative to: compound over Senexin B	residence time ratio	2 to 3 fold
Cc1cc(Nc2ccc(C(F)(F)F)c(F)c2)n2ncnc2n1	pyrD	enzyme activity, inhibitor, colorimetric HTS, refers to: DCIP reduction	–	3 µM	direction not given	robust Z-score	20.2
C[C@]12C[C@H](O)[C@H]3[C@@H](CCC4=CC(=O)CC[C@@]43C)[C@@H]1CC[C@@H]2C(=O)CO	Cytochrome P450 11B1, mitochondrial (CYP11B1, Homo sapiens, UniProt P15538)	substrate	–	100 µM, 37 °C, phospholipid vesicles	–	NADPH consumption rate, 18-hydroxylation	5.6 ± 1.1 min⁻¹

A few entries again:
Compound	tested on	test	test system	conditions	scale	endpoint	result
COc1cc(NC(=O)c2ccccn2)ccc1/N=N/c1ccccc1Cl	Metabotropic glutamate receptor 3 (GRM3, Homo sapiens, UniProt Q14832)	positive allosteric modulator, IP accumulation	HEK293	30 µM, in the dark, together with: low-dose orthosteric agonist	–	activation	-23.6%
CCNC(=O)/C=C/c1cccc(Br)c1	Sodium-dependent neutral amino acid transporter B(0)AT1 (SLC6A19, Homo sapiens, UniProt Q695T7)	inhibitor, FLIPR membrane potential	CHO-BC cells	0.003 µM, unit not given	relative to: no inhibitor	remaining transport activity	0.975
FC(F)(F)c1cccc(-c2n[nH]c(=S)o2)c1	P2X purinoceptor 4 (P2RX4, Homo sapiens, UniProt Q99571)	calcium mobilization	MCF7 stably transfected	100 µM, together with: ATP 100 µM	–	fluorescence increase	81.4 ± 0.77%
O=C(CN1C(=O)S/C(=C\c2ccc(Cl)cc2)C1=O)c1ccc([N+](=O)[O-])cc1	AKR1B1	enzyme activity, inhibitor	–	–	–	log IC50	2.67 log nM
CCCCC[C@H](O)/C=C/[C@H]1C(=O)C[C@H](O)[C@@H]1C/C=C\CCCC(=O)O	Prostaglandin D2 receptor (PTGDR, Homo sapiens, UniProt Q13258, D262A)	agonist	–	0.002441 µM	–	activation	24.1%
Nc1ncnc2c1ncn2[C@@H]1O[C@H](COP(=O)(O)CP(=O)(O)OP(=O)(O)O)[C@@H](O)[C@H]1O	P2X purinoceptor 1 (P2RX1, Homo sapiens, UniProt P51575, R139P)	calcium influx	–	31.6 nM	relative to: ionomycin response	calcium influx	1.21% and 1.83% and 1.01%
